Results from different studies.
Compare with care: the assays were run in different laboratories. Numbers after ± are the reported error.
Target: Alpha-glucosidase MAL12 (MAL12, Saccharomyces cerevisiae S288c, UniProt P53341)
UniProt P53341, sequence (whole entry, looked up): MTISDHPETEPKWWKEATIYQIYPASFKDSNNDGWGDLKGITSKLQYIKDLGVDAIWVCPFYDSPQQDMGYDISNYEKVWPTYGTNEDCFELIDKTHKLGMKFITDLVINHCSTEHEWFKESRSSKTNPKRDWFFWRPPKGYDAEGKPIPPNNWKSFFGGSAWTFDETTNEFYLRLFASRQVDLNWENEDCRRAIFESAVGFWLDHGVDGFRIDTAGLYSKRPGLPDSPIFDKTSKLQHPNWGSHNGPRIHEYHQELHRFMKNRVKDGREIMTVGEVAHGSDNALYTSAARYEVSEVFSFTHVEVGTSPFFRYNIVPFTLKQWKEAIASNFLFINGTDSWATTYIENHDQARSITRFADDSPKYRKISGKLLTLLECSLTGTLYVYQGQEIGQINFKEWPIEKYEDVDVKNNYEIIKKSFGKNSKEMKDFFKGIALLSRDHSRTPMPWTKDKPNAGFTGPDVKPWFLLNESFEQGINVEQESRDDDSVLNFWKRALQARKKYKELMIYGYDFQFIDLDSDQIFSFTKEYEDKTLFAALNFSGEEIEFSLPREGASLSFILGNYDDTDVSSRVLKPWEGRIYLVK

Structure (SMILES) = COc1ccc(C2NCCc3cc(O)c(O)cc32)cc1O (centres unmarked); assay = enzyme activity, inhibitor; conditions = 100 µM, DMSO solvent, together with: pNPG substrate; inhibition = 55.6 ± 1.29%
Structure (SMILES) = O=c1c(/C=N/NC(=S)Nc2ccccc2C(F)(F)F)coc2cc(F)ccc12; assay = enzyme activity, inhibitor; conditions = 500 µM; inhibition = 90.1%
Structure (SMILES) = O=Cc1ccccc1O; assay = inhibitor; conditions = 100 µg/mL, 0.4167 h, together with: p-nitrophenyl glucoside substrate; inhibition = 32.2 ± 2.65%
Structure (SMILES) = O=c1c(/C=N/NC(=S)Nc2ccc(Br)cc2)coc2cc(F)ccc12; assay = enzyme activity, inhibitor; conditions = 500 µM; inhibition = 92.2%
Structure (SMILES) = COc1ccc(-c2c(C(F)(F)F)oc3c(Cn4cccn4)c(O)ccc3c2=O)cc1; assay = inhibitor; conditions = 25 µM; inhibition = 21.5%
Structure (SMILES) = O=c1c(/C=N/NC(=S)Nc2cccc([N+](=O)[O-])c2)coc2cc(F)ccc12; assay = enzyme activity, inhibitor; conditions = 500 µM; inhibition = 90.9%
Structure (SMILES) = Oc1ccc(Cn2cnc3ccccc32)cc1; assay = inhibitor; conditions = 25 µM; inhibition = 19.4%
Structure (SMILES) = Cc1cc(=O)oc2ccc(-c3cc(-c4cccc(Cl)c4)nc(N)n3)c(O)c12; assay = enzyme activity, inhibitor; conditions = concentration not given; inhibition = 71.2 ± 1.23%
Structure (SMILES) = COc1cc(C(=O)CCO)ccc1O; assay = inhibitor; conditions = 100 µg/mL, 0.4167 h, together with: p-nitrophenyl glucoside substrate; inhibition = 45.3 ± 2.94%
Structure (SMILES) = CCCCCCCCCCCC1NCCc2cc(O)c(O)cc21 (centres unmarked); assay = enzyme activity, inhibitor; conditions = 100 µM, DMSO solvent, together with: pNPG substrate; inhibition = 68.2 ± 2.34%
Structure (SMILES) = O=c1c(/C=N/NC(=S)NCCc2ccccc2)coc2cc(F)ccc12; assay = enzyme activity, inhibitor; conditions = 500 µM; inhibition = 90.4%
Structure (SMILES) = COc1ccc(-c2coc3c(Cn4cccn4)c(O)ccc3c2=O)cc1; assay = inhibitor; conditions = 25 µM; inhibition = 39.2%
Structure (SMILES) = CC(C)CNC(=S)N/N=C/c1coc2cc(F)ccc2c1=O; assay = enzyme activity, inhibitor; conditions = 500 µM; inhibition = 87.7%
Structure (SMILES) = COc1ccc(-c2coc3c(Cn4ccnc4)c(O)ccc3c2=O)cc1; assay = inhibitor; conditions = 25 µM; inhibition = 11.8%
Structure (SMILES) = CCCCCCCCCCCCCCCCCC1NCCc2cc(O)c(O)cc21 (centres unmarked); assay = enzyme activity, inhibitor; conditions = 100 µM, together with: pNPG substrate; inhibition = 58.1 ± 1.55%
Structure (SMILES) = Cc1cc(=O)oc2ccc(-c3cc(-c4cccc([N+](=O)[O-])c4)nc(N)n3)c(O)c12; assay = enzyme activity, inhibitor; conditions = concentration not given; inhibition = 70.5 ± 1.23%
Structure (SMILES) = Cc1oc2c(Cn3cnc4ccccc43)c(O)ccc2c(=O)c1C; assay = inhibitor; conditions = 25 µM; inhibition = 8%
Structure (SMILES) = CCCCCCCCCCCCCCNC(=O)/C=C/c1ccc(O)c(O)c1; assay = enzyme activity; conditions = 10 µM, together with: α-amylase present; inhibition = 81.5 ± 0.89%
Structure (SMILES) = COc1cc(Cn2nc(C)cc2C)ccc1O; assay = inhibitor; conditions = 25 µM; inhibition = 4.9%
Structure (SMILES) = COc1cc(C2NCCc3cc(O)c(O)cc32)cc(OC)c1O (centres unmarked); assay = enzyme activity, inhibitor; conditions = 100 µM, DMSO solvent, together with: pNPG substrate; inhibition = 56.9 ± 1.14%

Excerpt of the above:
Structure (SMILES) = COc1cc(C2NCCc3cc(O)c(O)cc32)cc(OC)c1O (centres unmarked); assay = enzyme activity, inhibitor; conditions = 100 µM, DMSO solvent, together with: pNPG substrate; inhibition = 56.9 ± 1.14%
